# Results collected from several papers.
# Protocols differ between the studies behind these lines. “And” joins repeats or separate records; there may be more than shown. ± marks the error that the study gave.
Compound,tested on,test,conditions,scale,measurement,result
COc1cc(C2=CCCc3c2ccc(OC)c3OC(C)c2ccc([N+](=O)[O-])s2)cc(OC)c1OC (centres unmarked),A549,"cell growth, SRB","4 h exposure then 120 h oxic, oxic exposure then drug removal",,IC50,2.99 ± 1.19 µM
O=C(O)Cc1cc(O)ccc1O,,"binding, equilibrium dialysis LC-MS","5 µM, thermostabilized A2AR-BRIL construct","baseline: no-protein control, direction not given",z-scored log2 fold change,-1.33
C#CCCCC[C@H](C)C[C@@H](C)C(=O)N1C(=O)OC[C@H]1Cc1ccccc1,A549,"cell growth, sulforhodamine B",,,IC50,132 µM and 154 µM and 186 µM
COc1ccc(Cc2nccc3cc(OC)c(OC)cc23)cc1OC,A549,"mitochondrial oxygen consumption, Seahorse XF96",,,IC50,18 µM
C=C1C[C@](OC)([C@H](OCOC/C=C/B2OC(CC)(CC)C(CC)(CC)O2)C(=O)NC[C@@H]2C[C@@H](OC)C(C)(C)[C@@H](C[C@@H](COC)OC)O2)O[C@H](C)[C@@H]1C,A549,"cell viability, sulforhodamine B","72 h, 37 °C, together with: 100 µM H2O2",,IC50,0.024 ± 0.012 µM
COc1ccc2c(c1NC(=O)OCc1ncc([N+](=O)[O-])n1C)CCC=C2c1cc(OC)c(OC)c(OC)c1,A549,"cell growth, SRB","4 h exposure then 120 h oxic, oxic exposure then drug removal",,IC50,> 95 µM
CCN(CC)CCCC(C)Nc1ccnc2cc(Cl)ccc12 (centres unmarked),A549,"cell viability, alamarBlue","6 h, OptiMEM, then DMEM 42 h",,IC50,474 µM
COc1cc(C2=CCCc3c2ccc(OC)c3OCc2ccc([N+](=O)[O-])cc2)cc(OC)c1OC,A549,"cell growth, SRB","4 h exposure then 120 h oxic, oxic exposure then drug removal",,IC50,0.25 ± 0.02 µM
CC(=O)[C@@H]1CCCN1C(=O)[C@@H]1CCCN1C(=O)OC(C)(C)C,A549,"cell growth, sulforhodamine B",,,IC50,4.39 µM and 5.08 µM and 6.12 µM
O[C@H]1[C@H](O)[C@@H](O)[C@H](O)[C@@H](O)[C@H]1O,,"binding, equilibrium dialysis LC-MS","5 µM, thermostabilized A2AR-BRIL construct","baseline: no-protein control, direction not given",z-scored log2 fold change,-1.69
COc1ccc2nccc(Cc3cccc(-c4ccc(COP(=O)(O)O)cc4)c3)c2c1,A549,"mitochondrial oxygen consumption, Seahorse XF96",,,IC50,3 µM
Nc1nc(Nc2ccc3c(c2)CC[C@@H](N2CCCC2)CC3)nn1-c1cc2c(nn1)-c1ccccc1CCC2,A549,"inhibitor, Western blot, measured: phospho-Akt",,,IC50,2.37 µM
COc1ccc2c(c1NC(=O)OCc1cnc([N+](=O)[O-])n1C)CCC=C2c1cc(OC)c(OC)c(OC)c1,A549,,"4 h, anoxic",,IC50,2.54 ± 0.63 µM
Cc1nc(N(Cc2ccccc2)c2ccc3c(c2)/C(=C/c2ccccc2)C(=O)N3Cc2ccccc2)c2ccccc2n1 (mixture of isomers),A549,"cell viability, MTT",,,IC50,0.2 to 0.98 µM

# For quick reference, copied from above:
Compound,tested on,test,conditions,scale,measurement,result
O=C(O)Cc1cc(O)ccc1O,,"binding, equilibrium dialysis LC-MS","5 µM, thermostabilized A2AR-BRIL construct","baseline: no-protein control, direction not given",z-scored log2 fold change,-1.33
C#CCCCC[C@H](C)C[C@@H](C)C(=O)N1C(=O)OC[C@H]1Cc1ccccc1,A549,"cell growth, sulforhodamine B",,,IC50,132 µM and 154 µM and 186 µM
